Published values from different studies.
Every numbered part comes from another study and shows a few of its results, in no order.

Set 1 — method: RNA Bind-n-Seq; form: RNA; medium: in vitro; concentration: 365 nM; baseline: no-protein control; reading: higher = stronger binding
Target: RNA binding protein fox-1 homolog 2, RRM domain, GST-SBP tag (RBFOX2, Homo sapiens, UniProt O43251-10, residues 100-194)
Setting: natural RNA segment, single round, ends assumed
Shared flanks, not repeated: GGGAGUUCUACAGUCCGACGAUC … UGGAAUUCUCGGGUGCCAA
Target sequence (chain): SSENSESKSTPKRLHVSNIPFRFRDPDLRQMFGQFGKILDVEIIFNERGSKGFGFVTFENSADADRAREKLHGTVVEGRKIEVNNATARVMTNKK
Sequence | RBNS enrichment (R)
AUCAUCUUGAAUCCUCCACAAAUACAGAUACAGUCCCAAGGGAGGUAGUCGUAGAAAUGGAAGACGCCAGCCCUGCGCAGCCUGCAGGGACAUCCGCCAGGCUUCCCCUC | 0.321
CACUAGAAUAAUUGAGCAGAGGCUGGGGUCAUCUUUUGUGACCCGAGAAAUCCCAGGCCAGAACAGCUGGAGCUCUUAUGUAGCACACAAGGCUCGAACCAGCACCGAAU | 0.563
UUUAAAAAAUAAUUUGAGUGCUUGGAAACUAUUAGCUUUUUAAGUUCCUUCCAAAUAUGUUAGUACCUACCCUUUACUUUUUCCCCAAGACCAUCUCAGGGUGGAGCAUU | 0.901
GACUAUUUGAAUUUCAAGAACUGUGCUGCGAAGACACUCUGAGAACAUUUGCAAGUCAGGGGCAUUUUCCUUGACCCUUGACUGAUGCUAUGCGGAGACUGAUACAUUUU | 0.62
CUGUUCUUGCGGGGGAUAAAAAAGGGCUUGGGAGAUUCAUGCGAUGUGUCCAAUCGGAGACAAAAGCAGUUUCUCUCCAACUCCCUCUGGGAAGGUGACCUGGCCAGAGC | 0.297
AUCUCCUAACGGGGGCUGGGGGUAAGAGAAAUCUAACUGCGCUCCCCCAACCCCUCGCCCUGCCAUCUUCCCCUCAAGCCUGCUAAGUUAUCCCAGGCCUGUGCGUGGUG | 0.324
GUUAAAUUUGAAAGUGAAUGUGUUCAAAUGAAAGGUUUGAUAAUUGCAUCUGUUACUACUUAGUUUCAUAGGCUUUAAUUCUAGUAUGCAUUAAAUAUUGGGCAAAAUUG | 1.74
ACCUUUUUGCCCAUCACAUUAACUUUCCUGGAAUAUUGUGCUGCACAGGUAGACCUGAAUCUGCCCAGCUUGUUGACAGCUCUUGUGUAUACUGUGUUGAAGCCAGACAG | 1.14

Set 2 — method: aptamer microarray, sandwich; form: DNA with 2'F-ANA; medium: in vitro; concentration: 200 nM; with: Cy3 exosite-II aptamer, 400 nM; reading: higher = stronger binding; sequence: GGTTGGTGTGGTTGG
Target: Prothrombin, mature alpha-thrombin (F2, Homo sapiens, UniProt P00734)
Setting: whole 15-mer aptamer, many near background
Modification | mean fluorescence intensity [a.u.]
2'F-ANA at 1 2 3 5 7 11 12 | 94
2'F-ANA at 3 4 5 7 9 11 15 | 83.5
2'F-ANA at 3 4 5 7 8 11 12 | 204
2'F-ANA at 1 2 4 6 7 11 13 | 69.9
2'F-ANA at 1 3 4 5 7 9 13 14 | 45.8
2'F-ANA at 2 4 5 6 8 9 11 12 13 14 15 | 46
2'F-ANA at 3 4 5 6 7 8 9 11 12 14 15 | 65.4

Set 3 — method: protein binding microarray; form: double-stranded DNA, one strand shown; medium: in vitro; concentration: not given; baseline: not given; reading: higher = stronger binding
Target: Histone acetyltransferase KAT6A, winged helix 1, GST fusion (KAT6A, Homo sapiens, UniProt Q92794, residues 1-85)
Setting: 8-mer, flanks averaged, mean of 2 arrays, mostly near background
Residues (chain): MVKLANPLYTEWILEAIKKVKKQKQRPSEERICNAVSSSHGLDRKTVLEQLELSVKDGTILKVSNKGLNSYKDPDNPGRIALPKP
Sequence | E-score
AGTTACTG | -0.0555
GTCATTTA | -0.171
ATGAGCTA | 0.0126
CTGAGAGA | -0.177
AATCTCGG | 0.128
GGTAGACA | -0.0236
CGTTCACC | 0.0715
ACTCTCTA | -0.221
ATGAAATC | -0.161
AGAGTGAC | -0.123

Mixed results
Substance | target | test | system | setting | scale | endpoint | value
PhoQ, residues 284 288 289 292 302 303 SSTMSV | PhoP, residues 12 14 15 18 19 SYFRT (Escherichia coli, UniProt P23836) | Sort-seq, item: YFP reporter | E. coli | PhoQ-PhoP variant library, with: 10 µM Mg2+ | baseline: high Mg2+ state, higher = stronger signaling | fold induction | 1.05

Repeated from above (set 2):
Modification | mean fluorescence intensity [a.u.]
2'F-ANA at 1 2 3 5 7 11 12 | 94
